Measurements from different studies.
Parts stem from different laboratories: compare values within a part only. Positions count from the first letter of the parent shown.

Block 1 — method: RNA Bind-n-Seq; molecule type: RNA; sample: in vitro; concentration: 1 µM; notes: whole 134-nt RNA, ends assumed; together with: 150 mM KCl; baseline: input library; reading: higher = stronger binding
Target: Ras GTPase-activating protein-binding protein 1, C-terminal RGG region (G3BP1, Homo sapiens, UniProt Q13283)
Chain of UniProt Q13283 (whole entry, looked up): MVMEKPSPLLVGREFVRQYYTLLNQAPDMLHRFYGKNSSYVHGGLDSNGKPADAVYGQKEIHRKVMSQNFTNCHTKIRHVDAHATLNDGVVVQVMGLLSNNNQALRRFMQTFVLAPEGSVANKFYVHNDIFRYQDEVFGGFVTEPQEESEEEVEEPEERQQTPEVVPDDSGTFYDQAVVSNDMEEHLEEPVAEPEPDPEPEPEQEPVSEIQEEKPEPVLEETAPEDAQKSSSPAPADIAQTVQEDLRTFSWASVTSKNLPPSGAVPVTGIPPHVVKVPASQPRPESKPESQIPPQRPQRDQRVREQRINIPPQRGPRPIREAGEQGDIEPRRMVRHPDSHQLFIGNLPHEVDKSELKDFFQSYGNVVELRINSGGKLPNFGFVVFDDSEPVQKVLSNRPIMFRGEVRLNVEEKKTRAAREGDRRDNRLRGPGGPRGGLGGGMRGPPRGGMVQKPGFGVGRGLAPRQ
Constant ends, left off below: GGGAGUUCUACAGUCCGACGAUC … UGGAAUUCUCGGGUGUCAAGG
Sequence	log2 enrichment
ACCAUGCAGGUGGGCAUCUUUGGGAAGUGGGGCAAGGGGGGGCUAGGGAGGGGGGUAACACUUUGGGAACAGGUGGUCCCAGGUCGUUUC	2.35
GUCCUGUGCUACACAUCGUAUGUACCGAAUCGGGGUUUUUGGGGAGGGGAAAAAGGGGAAAGUAUUAUGUUACGCCGUUCGGAUCUGCAC	1.69
UGGCCCUGGUGGCAUGCGGGGAGGAAGAGGUGGUCUCAUGGAUCGUGGUGGUCCCGGUGGAAUGUUCAGAGGUGGCCGUGGUGGAGACAG	1.68
GCAGGAAGUAAAAACAAAAGGAAAUGCUUCGGAUAGUGGCAGGGGUGGGGGUUGCUAAGGAAAGGGUGGGAUGGGAGUGGGUAAAGAGUU	1.65
CUGUGCUACACAUCGUAUGUACCGAAUCGGGUUUUUUUGGUUUUUUUGGGGUUUUUUUGGGAAAGUAUUAUGUUACGCCGUUCGGAUCUG	-1.29
ACAGGAAGUAAAAACAAAUGGAAAUGCUUCGGAUAGUGGCAGGGGUGGGGGUUGCUAAGGAAAGGGUGGGAUGGGAGUGGGUAAAGAGUU	1.02
CCUGUGCUACACAUCGUAUGUACCGAAUCGGGUUUUUUUGGUUUUUUUGGUUUUUUUGGGAAAGUAUUAUGUUACGCCGUUCGGAUCUGC	-1.7
UGGGAGGUGGAUUUUGUUUAUUUUUUUAGCUCAUUUCCAGGGGUGGGAAUUUUGUUUUAAUAUGUGUCAUGAAUAAAGUUGUUUUUGAAA	2.83
UGGCCCUGGUGGCAUGCGGGGAGGAAGAGGUGGCCUCAUGGGUCGUGGUGGUCCCGGUGGAAUGUUCAGAGGUGGCCGUGGUGGAGACAG	1.91
AGUCCUGUGCUACACAUCGUAUGUACCGAAUCGGGGCCCCGGGGCCCCGGGCCCCGGAAAGUAUUAUGUUACGCCGUUCGGAUCUGCACU	0.475
AAGUCCUGUGCUACACAUCGUAUGUACCGAAUCGGUGGAAAAAAAGGAAAAAAAGGAAAGUAUUAUGUUACGCCGUUCGGAUCUGCACUU	-1.86
GCAGGAAGUAAAAACAAAUGGAAAUGCUUCGGAUAGUGGCAGGGGUGGGGGUUGCUAAGGAAAGGGUGGGAUGGGAGUUGGUAAAGAGUU	2.3
UGGGACGUGGAUUUUGUUUAUUUUUUUAGCUCAUUUCCAGGGGUGGGAAUUUUUUUUUAAUAUGUGUCAUGAAUAAAGUUGUUUUUGAAA	4.17
UGGCCCUGGUGGCAUGCGGGGAGGAACAGGUGGCCUCAUGGAUCGUGGUGGUCCCGGUGGAAUGUUCAGAGGUGGCCGUGGUGGAGACAG	1.76

Block 2 — method: protein-binding microarray; molecule type: double-stranded DNA, one strand shown; sample: in vitro; concentration: 2540 nM top; notes: 60-bp whole probe; together with: salmon DNA 0.4 mg/ml; baseline: random background probes; reading: higher = stronger binding; constant ends, left off below: GCCTAGCAC … GTCTTGATTCGCTTGACGCTGCTG
Target: Interferon regulatory factor 3, full length, phosphomimetic (IRF3, Homo sapiens, UniProt Q14653, residues 1-427, S386D/S396D/S398D/S402D/T404D/S405D)
Chain of UniProt Q14653 (whole entry, unmodified, looked up): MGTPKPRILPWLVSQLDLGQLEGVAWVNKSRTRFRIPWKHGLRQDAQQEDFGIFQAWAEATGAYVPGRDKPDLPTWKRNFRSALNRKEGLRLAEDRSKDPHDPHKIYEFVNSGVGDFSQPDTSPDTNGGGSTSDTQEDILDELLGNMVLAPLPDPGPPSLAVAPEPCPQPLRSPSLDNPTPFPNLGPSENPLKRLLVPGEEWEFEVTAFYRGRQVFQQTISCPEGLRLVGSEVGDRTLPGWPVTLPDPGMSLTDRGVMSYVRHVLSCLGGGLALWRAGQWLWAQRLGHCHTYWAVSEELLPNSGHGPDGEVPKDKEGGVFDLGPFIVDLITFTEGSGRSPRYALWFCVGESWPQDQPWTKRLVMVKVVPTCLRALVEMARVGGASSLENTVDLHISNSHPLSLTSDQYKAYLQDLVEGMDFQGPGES
Sequence	fitted relative affinity
TCAACTCTGAACCTTCAGACTGTGCTA	-0.0166 z-score
TTAGATCTCAGACTGGCTTAGTGCTAG	-0.218 z-score
CTTCCTTTACTTTCTTTTTTGTGCTAG	4 z-score
GACGATCTCCTTATCCTGACGTGCTAG	1.69 z-score
TTAGATTTCAGTCTCGACTAGTGCTAG	2.12 z-score
TCATATTCAGGTATATAACTGTGCTAG	1.05 z-score
TTTTGTTTTTCATTATTGTCGTGCTAG	4.16 z-score
TTAGGACTGGACTTTCTGTTAGTGCTA	0.142 z-score
GACGGTTTCCTTACCCTGACGTGCTAG	6.16 z-score
TTAGGACTGGGGTATCGGCTAGTGCTA	-0.937 z-score
GACGGACTGGACTTTAGGGACGTGCTA	-0.718 z-score
GACGGACTGGATTTTCGGGACGTGCTA	-0.157 z-score
GACGAACTGGGGTTTCGAGACGTGCTA	0.324 z-score
TTAGGAATGGGTATCGGTTAGTGCTAG	0.696 z-score
GACGAACTGGGGTTTCGGGACGTGCTA	1.03 z-score
CTAGGACTGGGGACTGGGTTAGTGCTA	-1.03 z-score
TTAGGTTTCGGGTTTCAGTTAGTGCTA	5.6 z-score
TTAGGTATCCTACTGCTATAGTGCTAG	2.78 z-score

Block 3 — target: CCNB3, cyclin fold, Cln2 fusion (human); method: yeast growth competition, sequencing; sample: yeast; notes: weak parent motif; baseline: not given; reading: higher = stronger binding
Parent: CDC25A docking peptide (human); PPHRRRLLFACSP
Change	normalised enrichment score
PPHRRRDLFACSP [L7D]	0.0695
PEHRRRLLFACSP [P2E]	0.619
PPHRSRLLFACSP [R5S]	0.155
PPHRRCLLFACSP [R6C]	-0.0858
PPHRRRLSFACSP [L8S]	-0.0165
LPHRRRLLFACSP [P1L]	0.118
PPHRRRLLFACDP [S12D]	-0.105
PPHRRRLMFACSP [L8M]	0.11
PPHFRRLLFACSP [R4F]	0.569
PPHRRRLLFTCSP [A10T]	0.232
PPHRRRLLSACSP [F9S]	0.395
CPHRRRLLFACSP [P1C]	-0.103
PPHNRRLLFACSP [R4N]	0.491
PPHCRRLLFACSP [R4C]	1.23
PPHRRRLCFACSP [L8C]	0.0993
FPHRRRLLFACSP [P1F]	0.355
PPYRRRLLFACSP [H3Y]	0.389
PPHRRRLLQACSP [F9Q]	-0.143
PPHRRRLLDACSP [F9D]	-0.251
PMHRRRLLFACSP [P2M]	0.679
PPHRVRLLFACSP [R5V]	0.527
PPHRRRLLFAWSP [C11W]	0.0356
PPHDRRLLFACSP [R4D]	0.269

Block 4 — method: DHFR PCA, deep sequencing; sample: yeast; together with: (+)-ABA 17 µM; baseline: wild-type fitted maximum; reading: higher = stronger binding
Target: ABI1, truncated, D143A, DHFR fusion (Arabidopsis thaliana)
Notes: methotrexate growth selection, single substitutions
Parent: PYL1, truncated, DHFR fusion (Arabidopsis thaliana); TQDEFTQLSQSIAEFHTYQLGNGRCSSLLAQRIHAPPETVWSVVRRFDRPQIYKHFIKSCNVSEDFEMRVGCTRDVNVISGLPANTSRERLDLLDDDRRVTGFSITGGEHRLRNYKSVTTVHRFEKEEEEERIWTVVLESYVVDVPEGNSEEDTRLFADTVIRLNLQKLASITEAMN; partner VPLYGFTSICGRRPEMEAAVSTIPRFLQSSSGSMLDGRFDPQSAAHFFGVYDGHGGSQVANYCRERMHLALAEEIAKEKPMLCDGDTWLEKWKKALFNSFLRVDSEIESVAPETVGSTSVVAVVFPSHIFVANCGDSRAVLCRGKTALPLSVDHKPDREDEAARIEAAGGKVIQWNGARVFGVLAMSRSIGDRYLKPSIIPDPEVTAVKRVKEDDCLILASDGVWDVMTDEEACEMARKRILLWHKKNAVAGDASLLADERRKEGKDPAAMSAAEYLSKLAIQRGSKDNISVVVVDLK
Change	relative binding score [%]
S59L	31.2
H110I	-20.2
V62D	8.3
R74H	-13.6
R24S	73.5
G107P	-1.63
F5D	69.6
T135Y	-6.74
E129S	93.7
E4C	72.3
M176V	77.3
L94T	-4.29
T106I	117
G148L	26.4
N165I	-10
K168T	86.9

Block 5 — method: protein binding microarray; molecule type: double-stranded DNA, one strand shown; sample: in vitro; concentration: not given; baseline: not given; reading: higher = stronger binding
Target: Histone acetyltransferase KAT6A, winged helix 1, GST fusion (KAT6A, Homo sapiens, UniProt Q92794, residues 1-85)
Notes: 8-mer, flanks averaged, mean of 2 arrays, mostly near background
Construct (chain): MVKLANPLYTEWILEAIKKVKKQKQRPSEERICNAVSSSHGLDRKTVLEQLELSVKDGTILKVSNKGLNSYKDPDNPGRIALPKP
Sequence	E-score
ATCCGAGA	-0.0326
ACTGGCCG	0.229
CGATACCA	-0.0944
AGTACCTA	-0.143
CCCTGTCA	-0.196
AGTTTACA	-0.192
AGAGTTAC	-0.144
CAGAGGGC	0.0703
AACTACAG	0.00594
CCCGAACG	0.227
GCTTAGAA	-0.0613
ACCGTCGG	0.459
CGAACTGA	-0.095
ATTAATTG	-0.00301
AATAGCGA	-0.0219
AGTAATTG	-0.0801
AGCGCTAA	0.332
AAAAGCGC	0.303
AAGCCTGG	-0.113
CTACTTGA	-0.238
ACTGGACC	0.00885
AGCAGACT	-0.0893
AAGCGGGA	0.334
AGCTTTTA	0.00468
AGGATTAG	-0.201
